Measurements collected from several papers.
Each numbered part is a random draw from the data of one study; scales do not carry over between parts.
Chain of UniProt Q15835 (whole entry, looked up): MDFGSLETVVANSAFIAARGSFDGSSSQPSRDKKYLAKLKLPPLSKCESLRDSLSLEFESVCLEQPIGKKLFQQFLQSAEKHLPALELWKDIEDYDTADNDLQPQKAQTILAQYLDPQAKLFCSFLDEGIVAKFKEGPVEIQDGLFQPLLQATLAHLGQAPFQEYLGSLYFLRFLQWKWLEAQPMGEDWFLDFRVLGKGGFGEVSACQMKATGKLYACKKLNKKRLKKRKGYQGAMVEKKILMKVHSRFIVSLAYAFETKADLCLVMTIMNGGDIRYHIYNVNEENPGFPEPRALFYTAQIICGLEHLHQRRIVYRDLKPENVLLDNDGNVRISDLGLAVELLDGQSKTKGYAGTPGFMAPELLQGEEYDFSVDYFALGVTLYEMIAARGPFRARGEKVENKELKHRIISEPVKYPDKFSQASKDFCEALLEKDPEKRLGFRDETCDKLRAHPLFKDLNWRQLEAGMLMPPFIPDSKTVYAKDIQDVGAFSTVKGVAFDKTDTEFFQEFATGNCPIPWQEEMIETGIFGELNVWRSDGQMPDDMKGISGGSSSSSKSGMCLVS
Chain of UniProt Q8N5S9 (whole entry, looked up): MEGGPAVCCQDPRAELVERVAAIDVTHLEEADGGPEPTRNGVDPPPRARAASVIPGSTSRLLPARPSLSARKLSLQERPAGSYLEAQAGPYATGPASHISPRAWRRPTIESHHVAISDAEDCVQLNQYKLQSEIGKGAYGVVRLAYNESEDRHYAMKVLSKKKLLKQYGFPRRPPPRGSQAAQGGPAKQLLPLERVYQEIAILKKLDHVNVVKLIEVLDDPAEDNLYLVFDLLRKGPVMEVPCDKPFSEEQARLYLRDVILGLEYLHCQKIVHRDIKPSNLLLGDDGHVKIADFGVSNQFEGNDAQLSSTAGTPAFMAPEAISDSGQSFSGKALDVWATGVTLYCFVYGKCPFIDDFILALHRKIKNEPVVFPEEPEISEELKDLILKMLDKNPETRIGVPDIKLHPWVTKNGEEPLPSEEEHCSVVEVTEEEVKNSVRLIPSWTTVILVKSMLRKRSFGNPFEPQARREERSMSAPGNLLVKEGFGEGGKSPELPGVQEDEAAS
Chain of UniProt Q8WU08 (whole entry, looked up): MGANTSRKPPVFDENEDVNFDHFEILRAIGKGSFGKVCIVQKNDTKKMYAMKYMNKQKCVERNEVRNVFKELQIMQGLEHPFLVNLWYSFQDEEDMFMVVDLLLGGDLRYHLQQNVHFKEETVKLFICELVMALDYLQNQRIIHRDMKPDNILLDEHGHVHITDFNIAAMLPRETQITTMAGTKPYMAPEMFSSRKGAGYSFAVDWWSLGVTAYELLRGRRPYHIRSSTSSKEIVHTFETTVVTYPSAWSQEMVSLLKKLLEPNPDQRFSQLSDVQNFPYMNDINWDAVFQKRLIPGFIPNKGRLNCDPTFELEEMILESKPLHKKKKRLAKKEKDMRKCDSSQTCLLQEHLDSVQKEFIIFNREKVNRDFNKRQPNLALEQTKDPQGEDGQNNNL
Chain of UniProt P35916 (whole entry, looked up): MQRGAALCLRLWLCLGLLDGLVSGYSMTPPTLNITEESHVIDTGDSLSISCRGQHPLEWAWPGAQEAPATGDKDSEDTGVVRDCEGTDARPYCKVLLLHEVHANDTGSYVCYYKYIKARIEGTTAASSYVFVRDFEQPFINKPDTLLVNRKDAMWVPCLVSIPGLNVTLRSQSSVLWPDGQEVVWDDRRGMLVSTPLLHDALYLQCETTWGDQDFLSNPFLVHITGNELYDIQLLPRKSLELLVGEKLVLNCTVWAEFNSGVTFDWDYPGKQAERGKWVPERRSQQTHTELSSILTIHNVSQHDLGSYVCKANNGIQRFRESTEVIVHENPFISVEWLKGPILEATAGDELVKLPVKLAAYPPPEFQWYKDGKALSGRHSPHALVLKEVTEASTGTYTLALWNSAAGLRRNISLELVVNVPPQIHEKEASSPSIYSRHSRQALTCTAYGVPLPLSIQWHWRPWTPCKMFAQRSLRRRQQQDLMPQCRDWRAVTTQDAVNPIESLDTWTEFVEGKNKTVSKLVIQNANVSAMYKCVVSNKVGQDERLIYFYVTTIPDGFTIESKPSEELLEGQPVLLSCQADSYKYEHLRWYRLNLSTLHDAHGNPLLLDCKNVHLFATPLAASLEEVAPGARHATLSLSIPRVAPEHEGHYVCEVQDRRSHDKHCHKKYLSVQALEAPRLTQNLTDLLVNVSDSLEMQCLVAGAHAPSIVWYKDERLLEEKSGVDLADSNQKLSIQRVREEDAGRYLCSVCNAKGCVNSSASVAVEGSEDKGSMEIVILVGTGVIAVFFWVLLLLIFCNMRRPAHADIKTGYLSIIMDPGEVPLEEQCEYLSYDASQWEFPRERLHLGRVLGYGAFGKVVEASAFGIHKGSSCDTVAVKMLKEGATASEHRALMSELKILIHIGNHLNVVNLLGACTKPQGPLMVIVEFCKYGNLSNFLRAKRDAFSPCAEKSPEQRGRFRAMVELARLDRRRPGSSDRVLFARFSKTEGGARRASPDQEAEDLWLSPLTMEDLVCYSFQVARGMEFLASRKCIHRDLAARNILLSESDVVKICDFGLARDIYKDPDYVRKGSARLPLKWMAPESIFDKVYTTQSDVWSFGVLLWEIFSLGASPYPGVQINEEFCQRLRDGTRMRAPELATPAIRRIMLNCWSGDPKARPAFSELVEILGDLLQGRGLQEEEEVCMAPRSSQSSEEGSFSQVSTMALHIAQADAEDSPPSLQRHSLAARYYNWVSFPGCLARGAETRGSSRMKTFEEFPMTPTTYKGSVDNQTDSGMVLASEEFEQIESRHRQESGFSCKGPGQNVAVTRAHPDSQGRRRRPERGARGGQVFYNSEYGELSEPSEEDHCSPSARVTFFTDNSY
Chain of UniProt P48730 (whole entry, looked up): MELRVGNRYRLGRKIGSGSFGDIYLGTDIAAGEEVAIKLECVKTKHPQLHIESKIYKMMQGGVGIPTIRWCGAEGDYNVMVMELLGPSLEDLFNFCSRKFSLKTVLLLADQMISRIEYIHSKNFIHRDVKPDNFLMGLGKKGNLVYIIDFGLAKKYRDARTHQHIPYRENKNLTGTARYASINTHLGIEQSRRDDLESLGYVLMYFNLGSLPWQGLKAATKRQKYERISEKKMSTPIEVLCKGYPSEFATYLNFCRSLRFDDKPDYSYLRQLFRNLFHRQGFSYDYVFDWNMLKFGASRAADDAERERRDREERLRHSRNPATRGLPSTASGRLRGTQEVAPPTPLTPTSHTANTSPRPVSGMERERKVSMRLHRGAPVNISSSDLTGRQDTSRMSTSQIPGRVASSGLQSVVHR
Chain of UniProt P11802 (whole entry, looked up): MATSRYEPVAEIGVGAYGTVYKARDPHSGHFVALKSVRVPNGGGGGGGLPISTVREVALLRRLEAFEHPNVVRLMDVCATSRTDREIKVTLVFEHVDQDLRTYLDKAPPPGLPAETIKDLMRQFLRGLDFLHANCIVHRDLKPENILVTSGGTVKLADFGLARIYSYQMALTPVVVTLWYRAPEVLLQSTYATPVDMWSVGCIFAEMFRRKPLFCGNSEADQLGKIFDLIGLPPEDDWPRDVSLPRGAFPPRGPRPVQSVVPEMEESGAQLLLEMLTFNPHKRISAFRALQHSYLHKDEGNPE
Chain of UniProt O00506 (whole entry, looked up): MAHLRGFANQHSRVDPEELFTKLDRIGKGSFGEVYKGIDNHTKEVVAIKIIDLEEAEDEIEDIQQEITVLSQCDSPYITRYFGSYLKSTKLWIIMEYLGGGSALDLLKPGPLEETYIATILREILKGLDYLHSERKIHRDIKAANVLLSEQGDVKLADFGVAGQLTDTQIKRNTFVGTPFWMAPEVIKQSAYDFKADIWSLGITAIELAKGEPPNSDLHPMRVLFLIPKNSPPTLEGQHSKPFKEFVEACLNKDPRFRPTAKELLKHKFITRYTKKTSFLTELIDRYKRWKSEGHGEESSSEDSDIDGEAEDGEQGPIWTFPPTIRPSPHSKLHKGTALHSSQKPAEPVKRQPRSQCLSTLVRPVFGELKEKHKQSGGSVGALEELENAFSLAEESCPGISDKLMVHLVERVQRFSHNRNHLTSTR

Sample 1
Target: RING finger protein unkempt homolog, zinc fingers 1-6, GST-SBP tag (UNK, Homo sapiens, UniProt Q9C0B0, residues 30-357)
Chain of UniProt Q9C0B0 (30-357, looked up): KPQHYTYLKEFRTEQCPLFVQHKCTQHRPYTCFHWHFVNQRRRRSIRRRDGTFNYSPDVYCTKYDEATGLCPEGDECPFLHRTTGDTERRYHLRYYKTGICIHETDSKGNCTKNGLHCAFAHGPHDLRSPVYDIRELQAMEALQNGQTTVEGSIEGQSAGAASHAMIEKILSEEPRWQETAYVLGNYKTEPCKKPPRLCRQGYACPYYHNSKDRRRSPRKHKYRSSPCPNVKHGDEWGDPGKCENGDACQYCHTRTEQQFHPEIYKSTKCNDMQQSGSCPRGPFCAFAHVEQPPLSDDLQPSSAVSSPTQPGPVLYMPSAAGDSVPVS
Technique: RNA Bind-n-Seq
Form: RNA
Sample: in vitro
Tested at: not given
Setting: RNA with constant flanks, ends assumed
Relative to: input RNA pool
Reading: higher = stronger binding
Shared flanks, not repeated: GGGAGUUCUACAGUCCGACGAUC … CAACAGAGGAUUGAGCAUCA
Strand	bound/input enrichment
GGGUUAUAUCAAUAUAAGAACAUAUGCCAACAGGUAAACAUUAAAUCUUUAGAAGAUGUUGUCCGGGCAUAUUUGAAAUUAGCAGAGGAAAAAACAGAAGCUGCUAAAGAAGAGUCCCAA	0.576 ratio
GGGAAUCCUGCUUGUUCGGCCCAGUUGCAGCAUGUCUCGCCACCCAUUUUUCCAGCUCAUUCCGCAAGUGUGUCAACUCCAUUGUUGUCCUCAAUGGAAAGUGUCAUAAAUCCAAAUAUA	0.252 ratio
CAACUGUUGUGAUGAAAAUGGCACCAGGAAGAAGGCUCUAUUUUUCCACUGAAGUUGAAGAUCCGUAAAAUGGUGUCAGAUGGUGACCCUGCUCGCACGCUUUAGUAAUUUUUUAAAGUG	1.46 ratio
AGUAAAGUUGACAAUAAAACCAGAGUUUCUAUCUAUCUGAUUUUUUUUUUUUUUUAAUUGCCGUUGCACUUGUAGAUCAGAUUAUCAGAGGCAGGAGCACUCCCGGAUUGGAGCAUACUU	1.41 ratio
UGGGCGCAGCAGUGUGGGGACACUGCUCUUGGAUGCCCUGGCUUUCUCCUGAAAUCGUGCCUCCGCUUCAGUCUUGCAGCUAUCAGGAUGGGGUGAAGCUGUGGUGCUGCCCCCCACCCU	0.102 ratio
ACCGCAUUCAUAGUAGAAAGAGACUUCGGCGGAAUCACUAAUGGGAAACCUGAAGAUAAAUCCGGCAUUCGAGGCUCCAACACAUGUGAGGUCCAUUUUGAAAAUACCAGAGUGCCUGUG	0.169 ratio
ACUCUUGACUCUUUCCAUUCUCGUCCCUUUCCUCUUGAUCUUCAAGGCCAUGAAUCCCAAAACCGCUAUCUAUCUUAGAGGCUAGCACCCAAACUGAGGUGCCAUCCAAACUGACAAGGC	0.414 ratio
AUAAAAUAAAAAUAAAAUAAAACAGAAAUAUUACUCUUCCAUAUUCCUUCUGGCUAUAUUCCGUAAUUAAUUUAUUUUAUGGUAAAGUUCUAAUGACAUGUAAAUUGUUUCAGCAAAGCU	0.696 ratio

Sample 2
SMILES: COc1ccc2c(c1)O[C@@H](c1ccc(OC)c(OC)c1)C[C@H]2NC(=O)C1(c2ccc3c(c2)OC(F)(F)O3)CC1
Observed: cell-free assay
Technique: competition with immobilised ligand
Tested at: 1 µM
target	remaining binding
Vascular endothelial growth factor receptor 3 (FLT4, Homo sapiens, UniProt P35916)	91%
Serine/threonine-protein kinase 32A (STK32A, Homo sapiens, UniProt Q8WU08)	100%
Rhodopsin kinase GRK1 (GRK1, Homo sapiens, UniProt Q15835)	95%
Casein kinase I isoform delta (CSNK1D, Homo sapiens, UniProt P48730)	100%
Serine/threonine-protein kinase 25 (STK25, Homo sapiens, UniProt O00506)	100%
Epidermal growth factor receptor (EGFR, Homo sapiens, UniProt P00533, del752-759)	100%
Calcium/calmodulin-dependent protein kinase kinase 1 (CAMKK1, Homo sapiens, UniProt Q8N5S9)	89%
Serine/threonine-protein kinase SIK3 (SIK3, Homo sapiens, UniProt Q9Y2K2)	82%
Fibroblast growth factor receptor 2 (FGFR2, Homo sapiens, UniProt P21802)	93%
Cyclin-dependent kinase 4, with cyclin D3 (CDK4, Homo sapiens, UniProt P11802)	95%

Sample 3
Target: SRSF protein kinase 1 (SRPK1, Homo sapiens, UniProt Q96SB4)
Chain of UniProt Q96SB4 (whole entry, looked up): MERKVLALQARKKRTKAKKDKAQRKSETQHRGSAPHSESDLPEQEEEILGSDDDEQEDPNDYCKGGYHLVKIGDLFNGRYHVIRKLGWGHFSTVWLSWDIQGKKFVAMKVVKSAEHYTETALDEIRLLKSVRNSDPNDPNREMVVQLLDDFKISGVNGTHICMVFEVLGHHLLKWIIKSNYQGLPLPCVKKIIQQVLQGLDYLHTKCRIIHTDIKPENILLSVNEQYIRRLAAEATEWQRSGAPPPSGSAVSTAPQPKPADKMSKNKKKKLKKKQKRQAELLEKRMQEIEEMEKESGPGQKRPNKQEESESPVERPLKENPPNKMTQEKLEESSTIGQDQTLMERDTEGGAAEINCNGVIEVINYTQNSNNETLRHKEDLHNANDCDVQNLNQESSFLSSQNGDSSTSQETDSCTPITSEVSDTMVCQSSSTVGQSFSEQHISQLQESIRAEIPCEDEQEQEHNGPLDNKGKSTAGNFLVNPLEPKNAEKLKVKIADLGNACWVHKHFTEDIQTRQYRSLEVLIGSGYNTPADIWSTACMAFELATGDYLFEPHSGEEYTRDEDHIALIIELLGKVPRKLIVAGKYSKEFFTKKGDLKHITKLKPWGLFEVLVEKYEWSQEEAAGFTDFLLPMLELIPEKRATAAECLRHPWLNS
Observed: enzyme activity
Mode: inhibitor
Tested at: 0.5 µM
Relative to: control
SMILES	remaining activity
CNC(=O)c1cc(Oc2ccc(NC(=O)Nc3ccc(Cl)c(C(F)(F)F)c3)cc2)ccn1	98.6%
COc1ccc(CNC(=O)Nc2ncc([N+](=O)[O-])s2)cc1	92.9%
O=C1NC(=O)C(c2cn(CCCO)c3ncccc23)=C1c1cnccn1	98%
O=C1NC(=O)C(c2cn(CCCn3ccnc3)c3ccccc23)=C1Nc1ccccc1	99.5%
C#Cc1cccc(Nc2ncnc3cc(OCCOC)c(OCCOC)cc23)c1	98%
O=C(CCCc1ccc(-c2ccccc2F)cc1)Nc1ccc(O)cc1	98.6%
O=C(O)c1ccc2c3c1cccc3c(=O)n1c3ccccc3nc21	96.1%

Sample 4
Target: Phosphate system positive regulatory protein PHO4, full length, GST-tagged (PHO4, Saccharomyces cerevisiae, UniProt P07270, residues 1-312)
Technique: competition protein-binding microarray
Form: double-stranded DNA, one strand shown
Sample: in vitro
Tested at: 2 µM
Setting: whole 60-bp probe, lowest competitor level
With: Cbf1 competitor, 0.05 µM
Reading: higher = stronger binding
Shared flanks, not repeated: … GTCTTGATTCGCTTGACGCTGCTG
Construct (chain): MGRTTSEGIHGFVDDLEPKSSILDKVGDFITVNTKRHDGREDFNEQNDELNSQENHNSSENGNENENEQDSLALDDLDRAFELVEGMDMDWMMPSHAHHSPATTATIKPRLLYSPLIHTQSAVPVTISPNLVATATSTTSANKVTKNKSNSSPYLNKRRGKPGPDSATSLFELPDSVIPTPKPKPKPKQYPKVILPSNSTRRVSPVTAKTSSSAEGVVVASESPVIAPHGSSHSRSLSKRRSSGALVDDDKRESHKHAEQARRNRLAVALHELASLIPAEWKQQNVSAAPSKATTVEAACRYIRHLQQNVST
Strand	fluorescence intensity [a.u.]
CTAACGAAGGTTTTTCACGTGCGCTACAAGCCAAGT	13100
TGCTGGCGCTGCTACGCCGTGACGGCTCATTTCATC	3630
TGCGCAACAACTTGTAACGTGGGTGTATGTCTAGAA	10100
AAAGCGGTAATTTGTCACCAAACTTCACATATCTAT	3300
TATTGGTTTTAGAAACACGTTTCGAATCTTCAGTAT	12800
ATGAAAAAGATTCACCACGTTTCTTTTGTTTCGATA	14200
TGTAATTAGTTTCGTCACGCTTACATTCGCGCCCTC	6510
ATTACGAGTTTTTCATCCGTGATGGCGATGATTTGG	3810

For quick reference, copied from above (sample 2):
target	remaining binding
Serine/threonine-protein kinase 32A (STK32A, Homo sapiens, UniProt Q8WU08)	100%
Rhodopsin kinase GRK1 (GRK1, Homo sapiens, UniProt Q15835)	95%
Casein kinase I isoform delta (CSNK1D, Homo sapiens, UniProt P48730)	100%
Serine/threonine-protein kinase 25 (STK25, Homo sapiens, UniProt O00506)	100%
Epidermal growth factor receptor (EGFR, Homo sapiens, UniProt P00533, del752-759)	100%
